Measurements gathered from unrelated publications.
Every numbered part comes from another study and shows a few of its results, in no order. “And” joins repeats or separate records; there may be more than shown.
UniProt O14976, sequence (whole entry, looked up): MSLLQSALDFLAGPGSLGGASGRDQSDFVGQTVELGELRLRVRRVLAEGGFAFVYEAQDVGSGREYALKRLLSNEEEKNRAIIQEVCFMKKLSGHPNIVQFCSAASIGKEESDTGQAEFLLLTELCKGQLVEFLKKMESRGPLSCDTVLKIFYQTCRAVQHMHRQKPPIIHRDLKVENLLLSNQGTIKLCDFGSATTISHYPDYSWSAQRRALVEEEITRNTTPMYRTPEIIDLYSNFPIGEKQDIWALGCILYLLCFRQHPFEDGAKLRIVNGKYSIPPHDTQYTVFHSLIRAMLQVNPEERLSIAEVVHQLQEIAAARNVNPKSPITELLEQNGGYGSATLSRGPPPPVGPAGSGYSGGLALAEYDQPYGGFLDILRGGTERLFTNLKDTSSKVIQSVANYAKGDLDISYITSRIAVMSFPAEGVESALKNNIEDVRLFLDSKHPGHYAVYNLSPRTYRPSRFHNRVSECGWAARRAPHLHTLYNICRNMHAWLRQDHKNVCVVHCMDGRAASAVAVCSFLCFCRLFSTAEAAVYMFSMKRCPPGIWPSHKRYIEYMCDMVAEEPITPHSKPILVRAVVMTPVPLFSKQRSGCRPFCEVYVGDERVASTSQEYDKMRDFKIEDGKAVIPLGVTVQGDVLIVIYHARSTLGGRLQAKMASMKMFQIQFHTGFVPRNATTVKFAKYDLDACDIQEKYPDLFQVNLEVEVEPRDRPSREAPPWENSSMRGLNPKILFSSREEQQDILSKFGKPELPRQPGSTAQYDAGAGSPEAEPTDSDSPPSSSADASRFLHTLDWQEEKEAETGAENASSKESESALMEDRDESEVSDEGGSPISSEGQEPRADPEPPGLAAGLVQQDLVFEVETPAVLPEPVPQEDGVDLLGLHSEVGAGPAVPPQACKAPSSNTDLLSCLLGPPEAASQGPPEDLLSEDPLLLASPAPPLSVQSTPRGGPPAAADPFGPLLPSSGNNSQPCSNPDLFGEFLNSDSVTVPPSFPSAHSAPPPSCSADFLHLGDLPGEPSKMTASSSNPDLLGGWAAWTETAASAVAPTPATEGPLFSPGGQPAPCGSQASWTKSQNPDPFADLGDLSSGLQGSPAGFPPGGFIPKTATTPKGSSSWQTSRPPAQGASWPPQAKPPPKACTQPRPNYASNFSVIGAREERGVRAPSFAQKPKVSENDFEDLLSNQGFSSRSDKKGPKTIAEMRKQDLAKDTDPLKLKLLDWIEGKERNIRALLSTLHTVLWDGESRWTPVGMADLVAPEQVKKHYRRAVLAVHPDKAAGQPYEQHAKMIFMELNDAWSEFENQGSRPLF
UniProt Q13164, sequence (whole entry, looked up): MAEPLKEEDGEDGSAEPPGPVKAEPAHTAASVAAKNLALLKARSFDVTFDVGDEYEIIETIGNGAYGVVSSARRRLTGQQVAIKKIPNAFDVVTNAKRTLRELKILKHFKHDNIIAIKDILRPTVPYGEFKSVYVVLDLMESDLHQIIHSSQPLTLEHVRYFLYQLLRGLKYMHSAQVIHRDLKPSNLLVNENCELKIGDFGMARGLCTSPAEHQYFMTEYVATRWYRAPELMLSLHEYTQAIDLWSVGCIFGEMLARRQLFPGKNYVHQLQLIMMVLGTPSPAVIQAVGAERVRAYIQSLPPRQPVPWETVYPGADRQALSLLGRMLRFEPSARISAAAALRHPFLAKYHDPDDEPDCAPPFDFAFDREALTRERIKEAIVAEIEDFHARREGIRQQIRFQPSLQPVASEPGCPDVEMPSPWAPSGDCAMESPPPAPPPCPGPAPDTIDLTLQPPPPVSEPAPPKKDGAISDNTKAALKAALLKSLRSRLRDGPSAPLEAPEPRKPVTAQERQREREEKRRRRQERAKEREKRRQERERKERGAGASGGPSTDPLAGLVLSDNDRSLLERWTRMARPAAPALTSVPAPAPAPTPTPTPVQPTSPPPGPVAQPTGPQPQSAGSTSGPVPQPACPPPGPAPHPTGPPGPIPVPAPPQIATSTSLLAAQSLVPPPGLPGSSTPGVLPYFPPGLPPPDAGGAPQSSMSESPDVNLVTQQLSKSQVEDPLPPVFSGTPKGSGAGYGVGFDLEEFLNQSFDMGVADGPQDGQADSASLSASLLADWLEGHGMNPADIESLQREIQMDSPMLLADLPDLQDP
UniProt Q13233, sequence (whole entry, looked up): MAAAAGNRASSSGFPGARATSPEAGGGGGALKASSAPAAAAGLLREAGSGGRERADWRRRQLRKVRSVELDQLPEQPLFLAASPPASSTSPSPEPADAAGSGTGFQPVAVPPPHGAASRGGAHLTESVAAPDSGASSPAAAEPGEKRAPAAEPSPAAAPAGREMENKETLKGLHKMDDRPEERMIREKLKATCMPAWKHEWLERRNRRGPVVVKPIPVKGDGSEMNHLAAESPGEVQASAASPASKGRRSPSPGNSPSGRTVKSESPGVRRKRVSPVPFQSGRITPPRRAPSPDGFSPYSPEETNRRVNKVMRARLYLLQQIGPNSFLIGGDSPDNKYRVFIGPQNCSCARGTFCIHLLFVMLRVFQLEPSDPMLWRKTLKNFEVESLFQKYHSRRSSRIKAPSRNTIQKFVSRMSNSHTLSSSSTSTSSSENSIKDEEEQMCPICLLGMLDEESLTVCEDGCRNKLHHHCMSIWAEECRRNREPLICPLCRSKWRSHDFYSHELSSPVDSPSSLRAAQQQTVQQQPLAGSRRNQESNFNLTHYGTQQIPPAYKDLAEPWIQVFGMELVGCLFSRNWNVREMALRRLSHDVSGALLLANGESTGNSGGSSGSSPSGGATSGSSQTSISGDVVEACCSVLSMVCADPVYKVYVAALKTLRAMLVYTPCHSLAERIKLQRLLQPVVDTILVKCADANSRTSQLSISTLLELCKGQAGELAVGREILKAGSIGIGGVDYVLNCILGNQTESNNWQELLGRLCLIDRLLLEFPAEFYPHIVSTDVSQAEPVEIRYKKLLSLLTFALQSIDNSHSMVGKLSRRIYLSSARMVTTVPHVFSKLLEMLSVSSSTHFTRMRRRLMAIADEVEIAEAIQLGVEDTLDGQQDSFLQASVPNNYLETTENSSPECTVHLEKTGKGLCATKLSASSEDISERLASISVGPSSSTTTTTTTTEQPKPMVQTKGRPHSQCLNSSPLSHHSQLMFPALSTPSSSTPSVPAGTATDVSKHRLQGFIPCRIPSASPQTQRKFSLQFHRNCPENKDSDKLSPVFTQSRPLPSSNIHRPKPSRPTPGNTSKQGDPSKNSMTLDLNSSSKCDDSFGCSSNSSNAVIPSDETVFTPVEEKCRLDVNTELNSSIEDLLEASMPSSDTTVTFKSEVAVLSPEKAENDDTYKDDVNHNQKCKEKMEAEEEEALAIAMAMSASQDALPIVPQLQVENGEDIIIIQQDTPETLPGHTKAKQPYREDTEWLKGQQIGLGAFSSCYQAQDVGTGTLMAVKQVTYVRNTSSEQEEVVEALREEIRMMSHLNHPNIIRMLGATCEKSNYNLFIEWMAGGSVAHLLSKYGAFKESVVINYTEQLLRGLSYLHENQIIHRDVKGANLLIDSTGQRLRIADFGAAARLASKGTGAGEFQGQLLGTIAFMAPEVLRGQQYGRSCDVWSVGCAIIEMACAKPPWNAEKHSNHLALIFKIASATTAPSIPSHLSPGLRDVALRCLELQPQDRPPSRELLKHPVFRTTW
UniProt Q59H18, sequence (whole entry, looked up): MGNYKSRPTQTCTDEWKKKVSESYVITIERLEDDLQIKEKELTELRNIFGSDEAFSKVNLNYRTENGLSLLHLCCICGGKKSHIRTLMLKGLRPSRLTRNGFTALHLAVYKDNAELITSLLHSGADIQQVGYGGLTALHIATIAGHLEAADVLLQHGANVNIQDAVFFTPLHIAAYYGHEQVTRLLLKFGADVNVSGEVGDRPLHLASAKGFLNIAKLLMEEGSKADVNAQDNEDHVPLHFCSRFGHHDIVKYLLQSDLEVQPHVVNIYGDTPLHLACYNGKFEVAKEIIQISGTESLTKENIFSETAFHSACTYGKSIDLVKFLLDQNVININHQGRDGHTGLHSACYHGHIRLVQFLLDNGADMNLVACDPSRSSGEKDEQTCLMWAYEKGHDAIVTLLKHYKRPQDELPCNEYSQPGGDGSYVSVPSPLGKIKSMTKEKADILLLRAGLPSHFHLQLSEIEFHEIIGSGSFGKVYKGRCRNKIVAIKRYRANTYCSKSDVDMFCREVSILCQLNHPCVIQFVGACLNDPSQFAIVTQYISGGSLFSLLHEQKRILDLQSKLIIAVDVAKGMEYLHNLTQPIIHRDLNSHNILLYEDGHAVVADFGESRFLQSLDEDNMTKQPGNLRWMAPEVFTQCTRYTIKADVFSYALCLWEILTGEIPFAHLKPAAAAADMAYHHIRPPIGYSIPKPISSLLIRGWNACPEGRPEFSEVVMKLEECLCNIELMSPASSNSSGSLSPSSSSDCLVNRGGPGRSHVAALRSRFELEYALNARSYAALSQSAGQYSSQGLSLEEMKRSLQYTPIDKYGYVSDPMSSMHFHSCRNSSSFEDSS
UniProt Q09013, sequence (whole entry, looked up): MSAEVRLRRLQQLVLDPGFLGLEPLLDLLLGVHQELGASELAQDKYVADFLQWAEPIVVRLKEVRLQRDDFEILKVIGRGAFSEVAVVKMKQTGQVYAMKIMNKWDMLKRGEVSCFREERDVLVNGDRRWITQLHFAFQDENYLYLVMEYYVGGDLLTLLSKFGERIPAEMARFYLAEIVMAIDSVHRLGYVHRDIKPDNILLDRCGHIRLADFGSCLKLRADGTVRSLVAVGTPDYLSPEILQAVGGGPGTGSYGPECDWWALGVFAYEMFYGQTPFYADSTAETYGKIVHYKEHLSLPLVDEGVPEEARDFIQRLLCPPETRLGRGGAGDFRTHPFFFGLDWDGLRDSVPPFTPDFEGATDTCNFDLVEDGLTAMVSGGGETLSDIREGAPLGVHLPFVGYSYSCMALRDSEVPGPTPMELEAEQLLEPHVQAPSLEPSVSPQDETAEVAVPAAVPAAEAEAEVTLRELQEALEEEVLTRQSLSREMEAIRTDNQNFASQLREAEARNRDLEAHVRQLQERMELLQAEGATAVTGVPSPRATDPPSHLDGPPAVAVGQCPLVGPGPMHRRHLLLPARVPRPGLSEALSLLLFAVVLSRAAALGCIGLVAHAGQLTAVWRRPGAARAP

Sample 1
Cell line: mouse MPNST tumor cells
Technique: high-content nuclear imaging
Measured: cell number
Concentration: 10 µM
Time: 12 h
Setting: mean of 2 replicates
Reference: plate mean
Reading: higher = more cells
SMILES	nuclei count
C[N+]12CCC(CC1)C(OC(=O)C(O)(c1ccccc1)c1ccccc1)C2 (stereo not shown)	0.374 z-score
CCC(=O)O[C@@](Cc1ccccc1)(c1ccccc1)[C@@H](C)CN(C)C	1.93 z-score
FC(F)(F)c1cccc(C2=CCN(CCc3ccc4ccccc4c3)CC2)c1	-0.527 z-score
O=C(N[C@H]1CN2CCC1CC2)c1cc2ccoc2cn1	0.844 z-score

Sample 2
Compound: O=C1CCC(N2Cc3c(ccc4c3OCC43CCN(Cc4ccccc4)CC3)C2=O)C(=O)N1 (stereo not shown)
Matrix: plasma
system	setting	plasma concentration
Sprague Dawley rat, male	intravenous, 1 mg/kg, 8 h	15.4 ng/mL and 15.2 ng/mL
male ICR mice	intravenous, 1 mg/kg, 2 h	60.2 ng/mL
male Sprague Dawley rats	oral, 3 mg/kg, 4 h	229 ng/mL
Sprague Dawley rat, male	oral, 3 mg/kg, 0.25 h	40.1 ng/mL and 28.3 ng/mL
male ICR mice	oral, 3 mg/kg, 0.083 h	90.6 ng/mL
male Sprague Dawley rats	oral, 3 mg/kg, 6 h	107 ng/mL

Sample 3
Structure (SMILES): Cn1cncc1[C@@](O)(COc1ccc(C#N)cc1-c1ccc(OC(F)(F)F)cc1)c1ccc(C#N)cc1
Observed: cell-free assay
Technique: competition with immobilised ligand
Concentration: 1 µM
target	remaining binding
GAK (Homo sapiens, UniProt O14976)	91%
ACVR2A (Homo sapiens, UniProt P27037)	98%
KDR (Homo sapiens, UniProt P35968)	100%
TNNI3K (Homo sapiens, UniProt Q59H18)	100%
ERN1 (Homo sapiens, UniProt O75460)	95%
TAOK2 (Homo sapiens, UniProt Q9UL54)	98%
PKN2 (Homo sapiens, UniProt Q16513)	85%
ABL2 (Homo sapiens, UniProt P42684)	100%
HIPK3 (Homo sapiens, UniProt Q9H422)	97%
DMPK (Homo sapiens, UniProt Q09013)	94%
MAP3K1 (Homo sapiens, UniProt Q13233)	100%
MAPK7 (Homo sapiens, UniProt Q13164)	93%
WNK3 (Homo sapiens, UniProt Q9BYP7)	100%
MAP3K15 (Homo sapiens, UniProt Q6ZN16)	83%
Ribosomal protein S6 kinase alpha-3, C-terminal kinase domain (RPS6KA3, Homo sapiens, UniProt P51812)	72%

Sample 4
Compound: CNC(=O)c1ccc(-c2cnn3ccc(C(=O)N(C)c4ccc(Cl)c(C(=O)OC)c4)cc23)cc1
Organism: Cryptosporidium parvum
Technique: time-kill
Cells: HCT-8
Strain: nanoluciferase-expressing
Reference: DMSO control
setting	luminescence remaining
0.02743 µM, 4 h	119% and 95.2%
0.7407 µM, 0 h	85.3% and 97.9% and 93.1% and 106% and 102% and 94.5% and 113%
0.7407 µM, 24 h	45.5% and 48%
0.00305 µM, 24 h	112% and 88.1%
6.667 µM, 72 h	9.34% and 9.28%
0.7407 µM, 8 h	101% and 102%
